Results gathered from unrelated publications.
Numbered parts are unrelated; each lists some results of a single study.
UniProt P06493, sequence (whole entry, looked up): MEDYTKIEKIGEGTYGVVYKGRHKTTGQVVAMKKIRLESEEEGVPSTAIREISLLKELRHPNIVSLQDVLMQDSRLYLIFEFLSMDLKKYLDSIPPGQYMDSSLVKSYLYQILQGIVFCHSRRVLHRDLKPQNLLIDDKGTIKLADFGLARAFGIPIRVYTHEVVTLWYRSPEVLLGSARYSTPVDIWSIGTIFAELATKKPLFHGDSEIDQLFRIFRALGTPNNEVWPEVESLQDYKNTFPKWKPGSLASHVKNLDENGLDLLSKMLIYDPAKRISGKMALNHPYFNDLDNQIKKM
UniProt Q9P286, sequence (whole entry, looked up): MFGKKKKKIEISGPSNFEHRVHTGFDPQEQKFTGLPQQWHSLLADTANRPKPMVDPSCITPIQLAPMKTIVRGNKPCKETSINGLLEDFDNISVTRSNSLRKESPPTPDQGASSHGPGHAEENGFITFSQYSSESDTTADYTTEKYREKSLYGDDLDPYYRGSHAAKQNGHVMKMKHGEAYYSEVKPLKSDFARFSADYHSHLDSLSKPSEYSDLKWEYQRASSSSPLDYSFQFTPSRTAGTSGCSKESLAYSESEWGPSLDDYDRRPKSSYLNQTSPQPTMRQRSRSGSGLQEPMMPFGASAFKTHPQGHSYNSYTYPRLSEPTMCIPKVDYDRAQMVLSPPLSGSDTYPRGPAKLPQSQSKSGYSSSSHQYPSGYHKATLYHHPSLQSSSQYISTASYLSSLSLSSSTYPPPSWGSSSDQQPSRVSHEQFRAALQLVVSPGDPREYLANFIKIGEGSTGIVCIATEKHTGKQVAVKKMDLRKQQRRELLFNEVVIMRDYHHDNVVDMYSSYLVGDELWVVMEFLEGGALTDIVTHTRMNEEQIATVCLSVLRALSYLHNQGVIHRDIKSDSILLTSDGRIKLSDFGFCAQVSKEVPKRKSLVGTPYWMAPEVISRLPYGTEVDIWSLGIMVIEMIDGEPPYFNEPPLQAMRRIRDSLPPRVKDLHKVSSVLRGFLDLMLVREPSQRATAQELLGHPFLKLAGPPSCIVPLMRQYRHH
UniProt P68400, sequence (whole entry, looked up): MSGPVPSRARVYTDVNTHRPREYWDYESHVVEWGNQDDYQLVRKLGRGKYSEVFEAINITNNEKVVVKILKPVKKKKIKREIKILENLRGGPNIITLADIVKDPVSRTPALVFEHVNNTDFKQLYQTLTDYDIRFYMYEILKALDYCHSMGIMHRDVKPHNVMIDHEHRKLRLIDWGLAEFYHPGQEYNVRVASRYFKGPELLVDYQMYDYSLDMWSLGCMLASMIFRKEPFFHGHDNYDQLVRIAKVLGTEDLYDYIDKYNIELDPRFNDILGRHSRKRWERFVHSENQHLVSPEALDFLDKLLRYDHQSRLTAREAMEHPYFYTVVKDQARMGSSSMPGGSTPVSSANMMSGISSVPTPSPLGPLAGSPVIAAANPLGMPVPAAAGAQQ
UniProt Q14680, sequence (whole entry, looked up): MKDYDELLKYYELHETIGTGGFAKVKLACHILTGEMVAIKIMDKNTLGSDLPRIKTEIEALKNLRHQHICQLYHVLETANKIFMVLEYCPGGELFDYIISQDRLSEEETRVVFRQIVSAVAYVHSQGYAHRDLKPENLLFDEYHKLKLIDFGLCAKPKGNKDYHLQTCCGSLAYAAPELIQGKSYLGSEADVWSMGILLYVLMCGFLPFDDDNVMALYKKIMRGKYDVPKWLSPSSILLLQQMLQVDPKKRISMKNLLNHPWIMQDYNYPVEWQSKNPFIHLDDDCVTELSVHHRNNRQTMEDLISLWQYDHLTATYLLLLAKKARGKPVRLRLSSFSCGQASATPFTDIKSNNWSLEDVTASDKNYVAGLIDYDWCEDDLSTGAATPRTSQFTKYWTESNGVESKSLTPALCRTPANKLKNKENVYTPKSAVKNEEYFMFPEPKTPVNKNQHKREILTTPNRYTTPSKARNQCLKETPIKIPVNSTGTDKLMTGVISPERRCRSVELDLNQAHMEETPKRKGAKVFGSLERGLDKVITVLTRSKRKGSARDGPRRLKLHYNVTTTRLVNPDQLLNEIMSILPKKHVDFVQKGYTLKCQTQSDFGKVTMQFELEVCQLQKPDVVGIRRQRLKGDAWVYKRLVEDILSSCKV
UniProt Q13237, sequence (whole entry, looked up): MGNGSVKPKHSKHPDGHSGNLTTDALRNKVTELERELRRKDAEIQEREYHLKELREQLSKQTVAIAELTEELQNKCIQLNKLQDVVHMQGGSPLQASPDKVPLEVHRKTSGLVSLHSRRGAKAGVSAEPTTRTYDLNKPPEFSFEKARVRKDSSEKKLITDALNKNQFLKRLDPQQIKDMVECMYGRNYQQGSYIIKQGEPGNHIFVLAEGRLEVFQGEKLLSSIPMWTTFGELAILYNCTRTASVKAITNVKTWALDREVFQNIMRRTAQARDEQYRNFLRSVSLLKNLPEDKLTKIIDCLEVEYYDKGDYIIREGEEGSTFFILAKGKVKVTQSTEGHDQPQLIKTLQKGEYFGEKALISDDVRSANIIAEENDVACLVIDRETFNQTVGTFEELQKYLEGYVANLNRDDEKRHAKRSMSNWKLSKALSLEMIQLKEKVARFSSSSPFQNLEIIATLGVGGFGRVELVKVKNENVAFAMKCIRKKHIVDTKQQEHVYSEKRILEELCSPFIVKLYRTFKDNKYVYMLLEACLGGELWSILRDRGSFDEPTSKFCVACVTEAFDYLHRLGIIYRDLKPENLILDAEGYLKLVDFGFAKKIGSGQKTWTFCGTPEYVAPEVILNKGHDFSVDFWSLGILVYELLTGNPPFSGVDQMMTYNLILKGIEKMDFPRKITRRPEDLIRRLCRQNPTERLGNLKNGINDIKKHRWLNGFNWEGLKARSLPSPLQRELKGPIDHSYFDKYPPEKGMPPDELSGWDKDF
UniProt Q86UE8, sequence (whole entry, looked up): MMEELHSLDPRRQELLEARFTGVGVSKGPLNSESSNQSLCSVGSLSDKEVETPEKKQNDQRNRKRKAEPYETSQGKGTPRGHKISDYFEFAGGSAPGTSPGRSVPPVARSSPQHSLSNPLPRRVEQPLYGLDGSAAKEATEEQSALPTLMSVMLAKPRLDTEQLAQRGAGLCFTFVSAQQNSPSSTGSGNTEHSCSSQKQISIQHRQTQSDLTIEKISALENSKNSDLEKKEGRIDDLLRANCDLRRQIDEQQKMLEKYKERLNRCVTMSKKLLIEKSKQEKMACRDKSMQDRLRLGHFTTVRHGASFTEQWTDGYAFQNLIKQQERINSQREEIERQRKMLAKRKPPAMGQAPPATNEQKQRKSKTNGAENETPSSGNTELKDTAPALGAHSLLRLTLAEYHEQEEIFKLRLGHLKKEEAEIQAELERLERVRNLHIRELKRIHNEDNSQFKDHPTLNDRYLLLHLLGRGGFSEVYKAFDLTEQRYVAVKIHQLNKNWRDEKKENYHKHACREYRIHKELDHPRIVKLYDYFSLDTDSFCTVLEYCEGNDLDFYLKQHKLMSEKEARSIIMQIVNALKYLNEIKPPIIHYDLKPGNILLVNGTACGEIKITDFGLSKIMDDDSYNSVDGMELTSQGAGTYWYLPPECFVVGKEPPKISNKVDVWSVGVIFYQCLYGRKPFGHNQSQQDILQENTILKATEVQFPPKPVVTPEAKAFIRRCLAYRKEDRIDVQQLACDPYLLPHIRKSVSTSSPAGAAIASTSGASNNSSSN
UniProt Q13464, sequence (whole entry, looked up): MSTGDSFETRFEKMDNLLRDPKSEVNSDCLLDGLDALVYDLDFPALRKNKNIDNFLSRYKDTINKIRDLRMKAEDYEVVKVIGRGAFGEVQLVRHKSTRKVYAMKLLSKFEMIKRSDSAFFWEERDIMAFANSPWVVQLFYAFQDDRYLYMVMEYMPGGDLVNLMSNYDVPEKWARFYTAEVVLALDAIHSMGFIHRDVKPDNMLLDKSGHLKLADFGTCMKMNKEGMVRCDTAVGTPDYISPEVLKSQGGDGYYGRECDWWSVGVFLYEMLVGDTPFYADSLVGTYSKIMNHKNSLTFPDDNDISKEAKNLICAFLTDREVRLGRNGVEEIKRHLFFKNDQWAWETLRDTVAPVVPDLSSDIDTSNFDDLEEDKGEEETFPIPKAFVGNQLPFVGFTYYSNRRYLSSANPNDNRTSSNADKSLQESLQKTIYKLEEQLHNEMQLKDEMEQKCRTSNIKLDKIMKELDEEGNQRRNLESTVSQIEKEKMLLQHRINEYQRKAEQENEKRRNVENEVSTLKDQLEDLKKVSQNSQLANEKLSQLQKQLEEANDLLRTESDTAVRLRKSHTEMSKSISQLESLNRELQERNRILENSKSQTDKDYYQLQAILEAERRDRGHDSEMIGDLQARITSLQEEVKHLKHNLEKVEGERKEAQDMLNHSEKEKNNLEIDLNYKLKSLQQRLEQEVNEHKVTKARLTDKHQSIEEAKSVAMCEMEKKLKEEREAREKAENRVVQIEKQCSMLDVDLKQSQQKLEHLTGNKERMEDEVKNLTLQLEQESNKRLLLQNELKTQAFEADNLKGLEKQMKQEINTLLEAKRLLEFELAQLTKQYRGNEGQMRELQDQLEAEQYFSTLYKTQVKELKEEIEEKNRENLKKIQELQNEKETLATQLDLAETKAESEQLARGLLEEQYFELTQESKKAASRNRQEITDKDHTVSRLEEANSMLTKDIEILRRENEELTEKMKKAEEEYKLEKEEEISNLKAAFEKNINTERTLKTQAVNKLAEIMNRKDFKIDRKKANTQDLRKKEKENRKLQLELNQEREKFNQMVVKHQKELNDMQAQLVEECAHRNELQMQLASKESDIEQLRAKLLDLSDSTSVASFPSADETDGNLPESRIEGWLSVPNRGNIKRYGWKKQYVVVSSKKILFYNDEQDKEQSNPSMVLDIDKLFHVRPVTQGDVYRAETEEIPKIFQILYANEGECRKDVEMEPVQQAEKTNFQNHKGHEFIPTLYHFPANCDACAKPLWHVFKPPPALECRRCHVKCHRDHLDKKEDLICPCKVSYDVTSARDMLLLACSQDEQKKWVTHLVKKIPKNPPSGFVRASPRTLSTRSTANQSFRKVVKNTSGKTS

Study 1
Species: mouse
Medium: microsomes or S9
Tested at: 2 µM
Time: 0.5 h
Structure (SMILES) | remaining compound [%]
O=C1CC2CS(=O)(=O)CC2N1c1ccc(-c2nnc3n2CCCCC3)cc1 (stereo not drawn) | > 100
COc1cc(Cn2c(-c3nnc(C)o3)cc3ccccc32)cc(OC)c1 | 7.61
COC(=O)C12CC(CCC(C)=O)C(=O)N1CCc1c2n(C(=O)OC(C)(C)C)c2ccccc12 (stereo not drawn) | 1.47
CC(C)(C)NC(=O)NC(=O)CN1CCCC1CN1CCCCC1 (stereo not drawn) | 97.7
COC(=O)c1ccc(/C=C(\COc2cccc3ccccc23)CN(CCCN(C)C)C(=O)OC(C)(C)C)cc1 | 5.22
Cn1cnc(S(=O)(=O)N2CCC(Oc3nccnc3C#N)C2)c1 (stereo not drawn) | 90.1
Cc1ccc(CN2C(=O)N(Cc3ccccc3)C(=O)C2CC(C)C)s1 (stereo not drawn) | 1.32
CCCn1c(=O)c2sccc2n2c(CCC(=O)Nc3ccc(CC)cc3)nnc12 | 0.103

Study 2
Compound: Cn1cc(/C=C2\C(=O)Nc3ccc(S(N)(=O)=O)cc32)c2ccccc21
Observed: enzyme activity
Mode: inhibitor
Tested at: 0.5 µM
Baseline: control
target | remaining activity [%]
Serine/threonine-protein kinase tousled-like 2 (TLK2, Homo sapiens, UniProt Q86UE8) | 63.2
Cyclin-dependent kinase 1, with cyclin A (CDK1, Homo sapiens, UniProt P06493) | 56.9
Serine/threonine-protein kinase DCLK2 (DCLK2, Homo sapiens, UniProt Q8N568) | 93.2
Calcium/calmodulin-dependent protein kinase type 1B (PNCK, Homo sapiens, UniProt Q6P2M8) | 58.1
Ribosomal protein S6 kinase alpha-4 (RPS6KA4, Homo sapiens, UniProt O75676) | 71.2
Tyrosine-protein kinase TXK (TXK, Homo sapiens, UniProt P42681) | 51.3
cGMP-dependent protein kinase 2 (PRKG2, Homo sapiens, UniProt Q13237) | 85
Misshapen-like kinase 1 (MINK1, Homo sapiens, UniProt Q8N4C8) | 53.7
Cyclin-dependent kinase 9, with cyclin K (CDK9, Homo sapiens, UniProt P50750) | 86.8
G protein-coupled receptor kinase 4 (GRK4, Homo sapiens, UniProt P32298) | 40.4
MAP/microtubule affinity-regulating kinase 4 (MARK4, Homo sapiens, UniProt Q96L34) | 40.6
Serine/threonine-protein kinase MARK2 (MARK2, Homo sapiens, UniProt Q7KZI7) | 45.5
Rho-associated protein kinase 1 (ROCK1, Homo sapiens, UniProt Q13464) | 63.8
Vascular endothelial growth factor receptor 2 (KDR, Homo sapiens, UniProt P35968) | 74.3

Study 3
SMILES: c1ccc(N2CCN(Cc3nc4ccccc4[nH]3)CC2)nc1
Method: competition with immobilised ligand
Tested at: 1 µM
target | assay | remaining binding
Maternal embryonic leucine zipper kinase (MELK, Homo sapiens, UniProt Q14680) | binding | 100%
Serine/threonine-protein kinase B-raf (BRAF, Homo sapiens, UniProt P15056) | cell-free assay | 100%
Serine/threonine-protein kinase PAK 5 (PAK5, Homo sapiens, UniProt Q9P286) | cell-free assay | 100%
Homeodomain-interacting protein kinase 3 (HIPK3, Homo sapiens, UniProt Q9H422) | binding | 100%
Serine/threonine-protein kinase Nek6 (NEK6, Homo sapiens, UniProt Q9HC98) | binding | 100%
Casein kinase II subunit alpha (CSNK2A1, Homo sapiens, UniProt P68400) | cell-free assay | 97%
Mast/stem cell growth factor receptor Kit (KIT, Homo sapiens, UniProt P10721, V559D/V654A) | binding | 100%
Serine/threonine-protein kinase LATS1 (LATS1, Homo sapiens, UniProt O95835) | binding | 100%

Study 4
Cell line: mouse MPNST tumor cells
Method: high-content nuclear imaging
Measured: cell number
Tested at: 10 µM
Time: 12 h
Setting: mean of 2 replicates
Baseline: plate mean
Reading: higher = more cells
SMILES | nuclei count
NC(=O)c1nc(Nc2ccccc2)sc1NC(=O)C1CCCCC1 | 2.18 z-score
Cc1ccccc1C(=O)N1CCc2cc(-c3nc(NC(=O)Cc4ccc5c(c4)OCO5)sc3C)ccc21 | 2.98 z-score
CCCCN(CCCC)CCCOC(=O)c1ccc(N)cc1 | 0.584 z-score
O=C(COc1ccc(Cl)cc1)N1CCN(Cc2ccc3c(c2)OCO3)CC1 | 2.36 z-score
CC(C)N1CCN(S(=O)(=O)c2ccc(NC(=O)c3ccc(C(F)(F)F)cc3[N+](=O)[O-])cc2)CC1 | 2.45 z-score
CN1CCCC(n2nc(Cc3ccc(Cl)cc3)c3ccccc3c2=O)CC1 (stereo not drawn) | -3.12 z-score

Excerpt of the above (study 1):
Structure (SMILES) | remaining compound [%]
CC(C)(C)NC(=O)NC(=O)CN1CCCC1CN1CCCCC1 (stereo not drawn) | 97.7
COC(=O)c1ccc(/C=C(\COc2cccc3ccccc23)CN(CCCN(C)C)C(=O)OC(C)(C)C)cc1 | 5.22
Cn1cnc(S(=O)(=O)N2CCC(Oc3nccnc3C#N)C2)c1 (stereo not drawn) | 90.1
Cc1ccc(CN2C(=O)N(Cc3ccccc3)C(=O)C2CC(C)C)s1 (stereo not drawn) | 1.32
